Published values collected from several papers.
“And” joins repeats or separate records; there may be more than shown. ± marks the error that the study gave.
UniProt O94768, sequence (whole entry, looked up): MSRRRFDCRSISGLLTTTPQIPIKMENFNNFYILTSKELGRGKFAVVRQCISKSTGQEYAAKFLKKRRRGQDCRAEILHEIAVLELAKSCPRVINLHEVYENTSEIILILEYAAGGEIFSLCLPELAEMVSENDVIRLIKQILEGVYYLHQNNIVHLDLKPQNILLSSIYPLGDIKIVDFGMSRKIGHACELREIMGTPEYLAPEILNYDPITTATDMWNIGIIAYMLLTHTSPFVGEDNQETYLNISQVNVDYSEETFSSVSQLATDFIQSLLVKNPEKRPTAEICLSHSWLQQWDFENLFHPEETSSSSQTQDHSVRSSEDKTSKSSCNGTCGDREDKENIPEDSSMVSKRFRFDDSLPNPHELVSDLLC

CN(C)C1(CNC(=O)c2ccc3c(c2)CCN3C(=O)c2ccccc2)CCOCC1
brain concentration (male C57BL/6 mice; intraperitoneal, 50 mg/kg, 30 min): 550 ± 171 ng/g

CC(C)c1nc(N(C)S(C)(=O)=O)nc(-c2ccc(F)cc2)c1/C=C/[C@@H](O)C[C@@H](O)CC(=O)O
incidence of Vomiting (healthy human subjects; oral, dose not given, study CL-0537 safety set): 0%

C[C@H]1C[C@@H](N2C(=N)N[C@](C)(c3cccc(NC(=O)c4cccc(C#N)c4)c3Cl)CC2=O)CCO1
monocytes count change (rat; 1000 mg/kg, every other day): 46%

O=S(=O)(Nc1ccccc1)c1ccc(NC(=S)Nc2ccccc2)cc1
mean corpuscular haemoglobin concentration (mouse, female, blood; oral, 20 mg/kg daily, 14 days): 32.1 g/dL

C[C@H]1CN(c2n[nH]c3nc(N[C@H]4CC[C@H](NS(=O)(=O)CCC(F)(F)F)CC4)ncc23)CCO1
relative abundance (STK17B (Homo sapiens, UniProt O94768); inhibitor, Kinobeads competition profiling; 20 µM; baseline: vehicle): 1.09

COc1ccc(CCC2CCCC(CCc3ccc(OC)cc3)N2C[C@@H](O)CO)cc1.Cl (stereo in doubt)
resting membrane potential change (rabbit Purkinje fibres; 0.03 µM, cycle length 1 s; baseline: baseline): -0.2 ± 0.3 mV

CN1CC[C@@H](c2c(O)cc(O)c3c(=O)cc(-c4ccc(C(F)(F)F)cc4Cl)oc23)[C@@H]1CO
patients with adverse event (measured: rectal abscess; B-cell malignancies; oral, 100 mg, grade 3 to 4, intermittent dosing): 0%

C=CCNc1c(O)cc2c(O)c1C[C@@H](C)C[C@H](OC)[C@H](O)[C@@H](C)/C=C(\C)[C@H](OC(N)=O)[C@@H](OC)/C=C\C=C(/C)C(=O)N2
patients with infusion site pain (unresectable or metastatic STS, GIST, other; intravenous, 400 mg/m^2): 19%

Clc1ccc(-c2ccccc2)cc1
total protein (female Sprague-Dawley rats, serum; inhalation, 23 µg/rat, 1 h after exposure): 6 ± 0.2 g/dL

CN1CCN(S(=O)(=O)c2cc([N+](=O)[O-])ccc2N(CCOS(C)(=O)=O)CCOS(C)(=O)=O)CC1
hemoglobin (NOD/SCID mouse, naive, blood; intraperitoneal, 6.3 mg/kg, week 2): 166 g/L and 150 g/L and 148 g/L

COc1ncnn2ccc(-c3cnc4nc(C)n(Cc5nnc([C@@H](C)F)o5)c4c3)c12
incidence of grade 1 adverse events (human patients; oral, dose not given): 7.1%

CCc1ccc(CC/C=C/c2ccc3c(c2)C(=O)CC3)cc1
MCH (Sprague-Dawley rat, female, blood; oral, 450 mg/kg/day, 14 days): 18.9 pg

C[C@]1(CO)Cc2ncn(-c3ccc(C#N)c(Cl)c3)c2C(=O)O1
drug-related abnormal skin odour (human; 10 mg, European food-effect part, fed): 0%

C[C@@H]1NC(=O)[C@H](CCCCNC(=O)CO/N=C/C(=O)NCCCC[C@@H]2NC(=O)[C@@H](Cc3ccccc3)NC(=O)[C@H](CC(=O)O)NC(=O)CNC(=O)[C@H](CCCNC(=N)N)NC2=O)NC(=O)CNC(=O)[C@@H]2CCCN2C(=O)[C@H](CCCCNC(=O)CO/N=C/C(=O)NCCCC[C@@H]2NC(=O)[C@@H](Cc3ccccc3)NC(=O)[C@H](CC(=O)O)NC(=O)CNC(=O)[C@H](CCCNC(=N)N)NC2=O)NC(=O)[C@H](CCCCNC(=O)[C@H](CCCCN)NC(=O)[C@H](Cc2ccccc2)NC(=O)CNC(=O)CN2CCCNCCNCCCNCC2)NC(=O)[C@H](CCCCNC(=O)CO/N=C/C(=O)NCCCC[C@@H]2NC(=O)[C@@H](Cc3ccccc3)NC(=O)[C@H](CC(=O)O)NC(=O)CNC(=O)[C@H](CCCNC(=N)N)NC2=O)NC(=O)CNC(=O)[C@@H]2CCCN2C(=O)[C@H](CCCCNC(=O)CO/N=C/C(=O)NCCCC[C@@H]2NC(=O)[C@@H](Cc3ccccc3)NC(=O)[C@H](CC(=O)O)NC(=O)CNC(=O)[C@H](CCCNC(=N)N)NC2=O)NC1=O [copper-64 labelled]
tissue uptake (normal mice, kidney; intravenous, 0.74 MBq, 3 h post-injection): 36.6 ± 3.6 %ID/g

O=C(Nc1ccccc1)C1CCN(C(=O)Oc2cccnc2)CC1
subjects with Photophobia adverse event (adverse event reporting; healthy women; oral, 60 mg, 7 days): 7.1%

Repeated from above:
CN1CC[C@@H](c2c(O)cc(O)c3c(=O)cc(-c4ccc(C(F)(F)F)cc4Cl)oc23)[C@@H]1CO
patients with adverse event (measured: rectal abscess; B-cell malignancies; oral, 100 mg, grade 3 to 4, intermittent dosing): 0%

C=CCNc1c(O)cc2c(O)c1C[C@@H](C)C[C@H](OC)[C@H](O)[C@@H](C)/C=C(\C)[C@H](OC(N)=O)[C@@H](OC)/C=C\C=C(/C)C(=O)N2
patients with infusion site pain (unresectable or metastatic STS, GIST, other; intravenous, 400 mg/m^2): 19%
